Assay results from different studies.
± gives the spread as reported.

| Structure (SMILES) | cell line | assay | setting | IC50 [µM] |
| --- | --- | --- | --- | --- |
| Cc1cc(/C=C/c2ccc(O)c(O)c2)[nH]n1 | mouse Splenic lymphocyte | cell growth or viability, MTT | 48 h | > 100 |
| N=C(N/N=C/c1ccc(F)cc1)N/N=C/c1ccc(F)cc1 | KP-4 | cell growth or viability, crystal violet | 72 h | 9.4 |
| COc1ccc2cc3[n+](cc2c1OCc1cn(Cc2ccccc2Br)nn1)CCc1cc2c(cc1-3)OCO2 | SW1990 | cell growth or viability, MTT |  | 25.2 |
| CC(=O)O[C@@H]1CC[C@@]2(C)[C@@H](CC[C@]3(C)[C@@H]2C(=O)C=C2[C@@H]4[C@@H](C)[C@H](C)CC[C@]4(C)CC[C@]23C)[C@@]1(C)C(=O)NCCNC(=O)CCCCC[P+](c1ccccc1)(c1ccccc1)c1ccccc1 | HBE | cell growth or viability, MTT | 48 h | > 30 |
| Cc1ccc2oc(-c3c4c(N)n[nH]c(=O)c4nn3-c3ccc(NC(=O)/C=C/CN(C)C)cc3)c(C)c2c1 | H1581 (FGFR1 amplified) | cell proliferation |  | 0.0018 ± 0.0004 |
| N[C@@H](CCC(=O)N[C@@H](CS[Se]Cc1ccc(-c2cc(C(F)(F)F)nn2-c2ccc(S(N)(=O)=O)cc2)cc1)C(=O)NCC(=O)O)C(=O)O | WM-115 melanoma cells | cell viability, MTS | 48 h, vertical stage | 5.8 ± 0.9 |
| NC1=N[N+](=Cc2c3ccccc3cc3ccccc23)[Ga-3]23([S]1)([S]C(N)=N[N+]2=Cc1c2ccccc2cc2ccccc12)[S]C(N)=N[N+]3=Cc1c2ccccc2cc2ccccc12 | CCD-18Co |  | 24 h | 54 ± 1.8 |
| Cc1cc(N)c2cc(NC(=O)COCC(=O)Nc3ccc4nc(C)cc(N)c4c3)ccc2n1 | CHO wild type | FGF2 binding to heparan sulfate, inhibitor, flow cytometry | on ice, with: biotinylated FGF2 2.5 nM | 0.7 ± 0.12 |
| C[n+]1c(/C=C/c2ccc(N(c3ccccc3)c3ccccc3)cc2)cc(/C=C2\Sc3ccccc3N2CCCN2CCCC2)c2ccccc21 | CA46 | cell growth or viability | 36 h | 1.95 |
| COC(=O)[C@@H]1[C@@H](OC)[C@H](OC(=O)c2cc(OC)c(OC)c(OC)c2)C[C@@H]2CN3CC[C@]4(O[C@@H]3C(=O)[C@@H]21)C(=O)Nc1cc(OC)c(-c2ccc(C(F)(F)F)cc2)cc14 | RS4-11 | cell growth or viability, trypan blue | 72 h | 0.32 |
| Cc1sc2c(c1C)C(c1ccc(Cl)cc1)=N[C@@H](CC(=O)N1CCN(CC3CCN(C(=O)CN4CCC(Nc5cccc6c5cc(C#CCNc5ccc(P(C)(C)=O)cc5)n6CC(F)(F)F)CC4)CC3)CC1)c1nnc(C)n1-2 | A549 p53 wild type | cell growth |  | 3.5 |
| CC(=O)O[C@H]1OC[C@@H]2C=C([C@@]3(C)CCCC(C)(C)C3)CC[C@H]12 | human T lymphocytes | interleukin-2 release, inhibitor, ELISA | pre-treated 2 h, with: concanavalin A 50 µg/mL 48 h | 0.12 |
| N=C(N)NCCC[C@H](N)C(=O)N[C@H](CC(=O)N[C@@H](Cc1ccc(O)cc1)C(=O)O)c1cccc2ccccc12 | MCF-7 (no HER2 overexpression) |  |  | > 50 |
| C1=[N+]2CCCC[N+]3=Cc4ccc5[n]4[Au-]23[n]2c1ccc2-c1nc2ccccc2nc1-5.F[P-](F)(F)(F)(F)F | breast cancer cell lines |  | NCI60 panel mean | 17 |
| CC(C)c1cccc(C(C)C)c1-n1ccn(-c2c(C(C)C)cccc2C(C)C)c1=[Se].[Cl][Au] | LoVo | cell growth or viability, MTT | 72 h | 2 |
| CCOP(=O)(OCC)C(Cc1c(F)c(F)c(Sc2ccc(OC)cc2)c(F)c1F)Nc1ccccc1 (stereo not shown) | U-118-MG | cell growth or viability, MTT | 48 h | 33.2 |
| Cc1nc2ccccc2c(=O)n1N | LoVo | cytotoxicity, LDH release | 24 h, 50% viability reduction | 340 ± 12.1 |
| O=c1sn(Cc2ccccc2)c(=O)n1C1CC1 | NB-4 | cell growth or viability | 72 h | 15.1 |
| C=C1C2C(OC(=O)c3ccccc3)C3C4N(C)C5C(O)C3(C1O)C(C2OC(C)=O)C41C(OC(C)=O)C(OC(=O)c2ccccc2)CC(C)(C=O)C51 (stereo not shown) | HBE | cell growth or viability, MTT |  | 43.7 |
